Measured values of several laboratories.
Lines come from different studies, so protocols differ. Numbers after ± are the reported error.

CN1CCN(S(=O)(=O)c2cc([N+](=O)[O-])ccc2N(CCOS(C)(=O)=O)CCOS(C)(=O)=O)CC1  IC50 fold change (sample D B-ALL PDX cells; cell viability; ex vivo; 48 h, with: AKR1C3 inhibitor; reference: with inhibitor over alone): 1.7
COc1cc(CCC[P+](c2ccccc2)(c2ccccc2)c2ccccc2)c(OC)c2c1OCO2.[I-]  GI50 (SK-MEL-28; SRB): -6.06 log M
CC(C)N1CCC(NC2CCN(c3cccc(-c4cc5cc(F)ccc5[nH]4)c3)CC2)CC1  CC50 (MDA-MB-435): 5500 nM
Cn1cncc1C1=CN(c2ncnc3[nH]cnc23)CCS1  CC50 (SK-MEL-2; melanoma cell line): 158000 nM
Oc1cc(O)cc(-c2cc3ccc(O)cc3o2)c1  cell survival (MCF7; cell growth, MTT; 3.6 µg/mL, 48 h): 79.24 ± 0.13%
O=C1CCP(=S)(c2ccccc2)CC1  early apoptotic cells (HaCaT; annexin V/PI flow cytometry; IC50, 72 h): 4.2%
COc1c(CCC[P+](c2ccccc2)(c2ccccc2)c2ccccc2)cc2c(c1OC)OCO2.[I-]  TGI (MDA-MB-435; SRB): -5.3 log M
CN1CCN(C2(CNC3CCN(c4cccc(-c5cc6cc(F)ccc6[nH]5)c4)CC3)CCC2)CC1  GI50 (MDA-MB-435): 523 nM
Nc1ncc(-c2nc(N3CCOCC3)nc(N3CCOCC3)n2)c(C(F)F)n1  GI50 (VA-ES-BJ; 72 h): 53 nM
Oc1ccc(C2(c3ccc(O)cc3)c3ccccc3-c3ccccc32)cc1  S phase cells (HepG2 spheroids; Hoechst flow cytometry; 0.10 µM, 96 h): 11.7 ± 2.74%
CC(C)=CCc1c(O)cc(O)cc1-c1cc2ccc(O)c(CC=C(C)C)c2o1  cell survival (3T3; cell growth, MTT; 50 µg/mL, 48 h): 51.4 ± 0.92%
Nc1ncnc2c1ncn2[C@@H]1O[C@@H]2COP(=O)(O)O[C@H]3[C@@H](O)[C@H](n4cnc5c(=O)[nH]cnc54)O[C@@H]3COP(=O)(O)O[C@H]2[C@H]1O  pathway fold enrichment (HFF-1; RNA sequencing, item: Interleukin-10 signaling; upregulated pathway; reference: Zika virus alone): 17.1
C[C@H]1[C@H](C)CC[C@]2(C(=O)O)CC[C@]3(C)C(=CC[C@@H]4[C@@]5(C)CC[C@H](O)C(C)(C)[C@@H]5CC[C@]43C)[C@H]12  cell survival (MCF7; cell growth, MTT; 3.6 µg/mL, 48 h): 75.8 ± 0.31%
COc1c(C)c2c(c(O)c1C/C=C(\C)CCC(=O)O)C(=O)OC2  IC50 (JEG-3; cell proliferation): 162 nM

Excerpt of the above:
CN1CCN(C2(CNC3CCN(c4cccc(-c5cc6cc(F)ccc6[nH]5)c4)CC3)CCC2)CC1  GI50 (MDA-MB-435): 523 nM
Nc1ncc(-c2nc(N3CCOCC3)nc(N3CCOCC3)n2)c(C(F)F)n1  GI50 (VA-ES-BJ; 72 h): 53 nM
